Assay results collected from several papers.
Each line is one published result; not all experiments were run side by side. ± gives the spread as reported.
Organism: Pseudomonas aeruginosa

With `CC(C)C[C@H](NC(=O)[C@H](C)NC(=O)CNC(=O)[C@@H](NC(=O)[C@H](CC(C)C)NC(=O)[C@H](CCCCN)NC(=O)[C@H](CCCCN)NC(=O)[C@H](CC(C)C)NC(=O)[C@H](CC(C)C)NC(=O)[C@H](CCCCN)NC(=O)[C@H](CC(C)C)NC(=O)[C@H](CC(C)C)NC(=O)[C@@H](N)CCCCN)C(C)C)C(=O)NCC(N)=O` the MIC was 21 µM (ATCC 19606, CAMHB; 18 h, 37 °C).
With `Cc1nc2ccccc2n(-c2ccc([N+](=O)[O-])cc2[N+](=O)[O-])c1=O` the MIC was 125 µg/mL (ATCC 29853).
For `CC(C)C[C@H](NC(=O)[C@H](CCC(=O)O)NC(=O)[C@H](CCCNC(=N)N)NC(=O)[C@H](C)NC(=O)[C@@H](NC(=O)[C@H](Cc1c[nH]cn1)NC(=O)[C@@H](N)Cc1c[nH]cn1)C(C)C)C(=O)N[C@@H](Cc1c[nH]cn1)C(=O)N1CCC[C@H]1C(=O)N[C@@H](CCC(=O)O)C(=O)N[C@@H](Cc1ccc(O)cc1)C(=O)N[C@@H](Cc1ccccc1)C(=O)N[C@@H](CCCCN)C(=O)N[C@@H](CC(N)=O)C(=O)N[C@@H](CS)C(=O)O`, the MIC was 10 µM (broth microdilution; PTCC 1074; overnight, 37 °C).
`CC(C)C[C@H](N)C(=O)N[C@@H](CS)C(=O)N1CCC[C@H]1C(=O)N[C@@H](Cc1c[nH]cn1)C(=O)N[C@@H](CCCNC(=N)N)C(=O)N[C@@H](CS)C(=O)O` gave an MIC of 40 µg/mL (broth microdilution; MTCC 1688; 37 °C).
The MIC of `CC[C@H](C)[C@H](NC(=O)[C@H](CO)NC(=O)[C@@H](NC(=O)[C@H](C)NC(=O)[C@H](CCC(N)=O)NC(=O)CNC(=O)[C@@H](NC(=O)[C@@H](NC(=O)CNC(=O)[C@@H](NC(=O)[C@H](C)NC(=O)[C@@H]1CCCN1C(=O)CNC(=O)[C@H](C)NC(=O)[C@H](CCCCN)NC(=O)[C@@H](NC(=O)[C@@H](NC(=O)CNC(=O)[C@H](CC(=O)O)NC(=O)[C@H](CCCNC(=N)N)NC(=O)[C@@H](NC(=O)[C@H](CCCCN)NC(=O)[C@H](CCCNC(=N)N)NC(=O)CNC(=O)[C@@H](NC(=O)[C@H](CCCCN)NC(=O)[C@H](CCC(=O)O)NC(=O)[C@@H](NC(=O)[C@H](CCCCN)NC(=O)[C@H](CCCCN)NC(=O)[C@H](CC(C)C)NC(=O)[C@H](Cc1ccccc1)NC(=O)[C@H](CCCCN)NC(=O)[C@H](Cc1c[nH]c2ccccc12)NC(=O)[C@@H](N)CCCNC(=N)N)[C@@H](C)CC)C(C)C)C(C)C)C(C)C)[C@@H](C)CC)C(C)C)C(C)C)C(C)C)[C@@H](C)O)C(=O)N[C@@H](Cc1ccc(O)cc1)C(=O)N[C@@H](CCCCN)C(N)=O` is reported as 5 ± 2.5 µg/mL (broth microdilution; ATCC 27850; 20 h, 37 °C).
With `CC[C@H](C)[C@H](NC(=O)[C@H](C)NC(=O)[C@H](CCCCN)NC(=O)[C@H](CC(C)C)NC(=O)[C@H](C)NC(=O)[C@@H](NC(=O)[C@H](Cc1c[nH]cn1)NC(=O)[C@H](CC(C)C)NC(=O)[C@@H](NC(=O)[C@@H](NC(=O)[C@H](CCCCN)NC(=O)[C@H](CCCCN)NC(=O)[C@H](C)NC(=O)[C@H](CO)NC(=O)[C@H](CCCCN)NC(=O)[C@H](Cc1ccccc1)NC(=O)[C@@H](NC(=O)[C@H](CCCCN)NC(=O)[C@H](CC(C)C)NC(=O)[C@H](Cc1ccccc1)NC(=O)[C@H](CO)NC(=O)[C@H](CCCCN)NC(=O)[C@H](Cc1c[nH]c2ccccc12)NC(=O)[C@H](CCCCN)NC(C)=O)[C@@H](C)O)[C@@H](C)O)C(C)C)[C@@H](C)O)C(=O)N[C@@H](CO)C(=O)N[C@@H](CO)C(N)=O` the MIC was 8 µg/mL (broth dilution; ATCC 27853, Mueller-Hinton broth; 24 h, 37 °C).
The MIC of `CC[C@H](C)[C@H](NC(=O)[C@H](C)NC(=O)[C@@H](NC(=O)[C@H](C)NC(=O)CN)[C@@H](C)O)C(=O)N[C@@H](CCCCN)C(=O)N[C@@H](CCC(N)=O)C(=O)N[C@H](C(=O)N[C@@H](CCCCN)C(=O)N[C@@H](CCCCN)C(=O)N[C@@H](CC(C)C)C(=O)N[C@@H](Cc1ccccc1)C(=O)N[C@@H](CCCCN)C(=O)N[C@@H](CCCCN)C(=O)N[C@@H](CCCCN)C(=O)NCC(=O)NCC(N)=O)C(C)C` is reported as 310 µM (broth microdilution; ATCC 9027; 24 h, 37 °C).
`CC[C@H](C)[C@H](NC(=O)[C@H](CCCCN)NC(=O)[C@H](CC(C)C)NC(=O)[C@H](CC(C)C)NC(=O)[C@H](C)NC(=O)CNC(=O)[C@H](CC(C)C)NC(=O)[C@@H](N)Cc1ccccc1)C(=O)NCC(=O)N[C@@H](C)C(=O)N[C@@H](CCCCN)C(=O)N[C@@H](CC(C)C)C(=O)N[C@@H](CC(C)C)C(=O)N1CCC[C@H]1C(=O)N[C@@H](CO)C(=O)N[C@H](C(=O)N[C@H](C(=O)NCC(=O)N[C@@H](CC(C)C)C(=O)N[C@@H](Cc1ccccc1)C(=O)N[C@@H](CCCCN)C(=O)N[C@@H](CCCCN)C(=O)N[C@@H](CCCCN)C(=O)N[C@@H](CCC(N)=O)C(=O)N[C@@H](CCC(N)=O)C(=O)O)C(C)C)C(C)C` gave an MIC of over 40 µM (broth microdilution; ATCC 27853; 20 h, 37 °C).
`CC[C@H](C)CCCCC(=O)N[C@@H](CCN)C(=O)N[C@H](C(=O)N[C@@H](CCN)C(=O)N[C@H]1CCNC(=O)[C@H]([C@@H](C)O)NC(=O)[C@H](CCN)NC(=O)[C@H](CCN)NC(=O)[C@H](CC(C)C)NC(=O)[C@@H](Cc2ccccc2)NC(=O)[C@H](CCN)NC1=O)[C@@H](C)O` gave an MIC of 1 µg/mL (broth microdilution; PA14, CAMHB; 24 h, 37 °C).

A few entries again:
With `Cc1nc2ccccc2n(-c2ccc([N+](=O)[O-])cc2[N+](=O)[O-])c1=O` the MIC was 125 µg/mL (ATCC 29853).
